Results from different studies.
Every numbered part comes from another study and shows a few of its results, in no order.

Sample 1 — technique: protein binding microarray; molecule type: double-stranded DNA, one strand shown; medium: in vitro; tested at: not given; relative to: not given; direction: higher = stronger binding; measurement: E-score
Target: Histone acetyltransferase KAT6A, both winged helices, GST fusion (KAT6A, Homo sapiens, UniProt Q92794, residues 1-181)
Notes: 8-mer, flanks averaged, mean of 2 arrays, mostly near background
Target sequence (chain): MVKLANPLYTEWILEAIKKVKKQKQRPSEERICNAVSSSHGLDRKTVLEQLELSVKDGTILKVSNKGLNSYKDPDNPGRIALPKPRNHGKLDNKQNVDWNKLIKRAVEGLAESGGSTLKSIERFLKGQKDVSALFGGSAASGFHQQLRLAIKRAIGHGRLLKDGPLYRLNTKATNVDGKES
AACCAGCC: 0.0248
CTCGTAAG: 0.0783
AGGGCTGA: -0.191
ACCCGTGC: 0.225
CGATGTTC: 0.00889
AATAAGGG: -0.307
AAGCAAAC: -0.0609
CTATCTAC: -0.166
AATTCCTG: -0.0171
CGCCGGTA: 0.31
AGAGATCC: -0.174
CCACCGAC: 0.0214
ATCAGCGG: 0.215
CAAGGTAC: -0.104
GCAATGCA: -0.0721
ATGCAGGC: -0.0795
TTATGAAA: -0.0609
GAACTACA: -0.0595
CTACCCTA: -0.13
AAAGTGGG: -0.13
CATCTTTA: -0.0221
CTATATAG: -0.201
CATGATCC: -0.137

Sample 2 — technique: RNA Bind-n-Seq; molecule type: RNA; medium: in vitro; tested at: not given; relative to: input RNA pool; direction: higher = stronger binding; measurement: bound/input enrichment
Target: RING finger protein unkempt homolog, zinc fingers 1-6, GST-SBP tag (UNK, Homo sapiens, UniProt Q9C0B0, residues 30-357)
Notes: RNA with constant flanks, human and mouse sites, ends assumed
Residues (chain): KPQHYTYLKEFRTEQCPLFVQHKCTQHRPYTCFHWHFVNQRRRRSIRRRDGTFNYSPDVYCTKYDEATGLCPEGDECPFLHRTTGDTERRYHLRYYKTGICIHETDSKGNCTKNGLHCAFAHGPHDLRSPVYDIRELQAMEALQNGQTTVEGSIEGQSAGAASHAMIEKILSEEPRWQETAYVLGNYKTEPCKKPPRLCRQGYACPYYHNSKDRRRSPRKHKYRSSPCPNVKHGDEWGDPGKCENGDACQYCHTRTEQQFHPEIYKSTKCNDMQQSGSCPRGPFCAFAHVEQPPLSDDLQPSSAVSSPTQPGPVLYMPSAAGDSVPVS
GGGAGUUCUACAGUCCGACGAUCAACAUUAACUUUCCUAAUCUCAAGCAAGAUUACCCAGACUGGUCUAGCCGAUGUAAACAAAUCAUGAAGCUCUGGAGAAAGGUUCCAGCCGCUGACAAAGCCCCCUACCUGCAAAAGGCCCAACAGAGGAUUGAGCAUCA: 0.551 ratio
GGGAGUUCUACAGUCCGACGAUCACUUUUGGACUUGAUCAGUUGAAAACAAGAGAAGCCAUUGCCAUGCUACACAAAGAUGGCAUAGAAUUUGCUUUUAAAGAGCCUAAUCCGCAAGGGGAGAGCCAUCCACCUUUAAAUUUGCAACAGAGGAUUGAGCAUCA: 0.367 ratio
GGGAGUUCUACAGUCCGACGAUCGGCUGCAGAGUCAUUCAGCGUAUCUUAGAGCACUGCACGGCAGAGCAGACCUUACCCAUCUUAGAAGAACUUCACCAACACACAGAACAGUUGGUACAGGAUCAGUAUGGCAAUUAUGUUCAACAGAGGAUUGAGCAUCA: 0.926 ratio
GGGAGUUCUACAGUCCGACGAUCGGAGCCAUAUAGCACUGUCACCCCUUAUUUGAGGAACUGAUGUUUGAAAGGCUGUUCUUUUCUCUCUUAAUGUCAUUUCUUUAAAAAUACAUGUGCAUACUACACACAGUAUAUAAUGCCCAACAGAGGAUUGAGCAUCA: 0.362 ratio
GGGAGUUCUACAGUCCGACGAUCCUUCUUCGAAUAGAGAAAGAGGAAUUGGAUAUGAAAGGAAGUGGUUUCUAUGUUUCUCUGGAGUGGGUCACUAUCAGUAAGAAAAAUCAAGAUAAUAAAAAAUAUGAAAUUAUUAAGCGUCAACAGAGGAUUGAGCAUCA: 2.53 ratio
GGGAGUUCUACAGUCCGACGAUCGAAAACAUGGAAAGGAUGAGCGACUCGGCAGAUAAGCCGAUUGACAACGACGCGGAGGGCGUCUGGAGUCCUGAUAUUGAGCAGAGUUUCCAGGAGGCCCUGGCUAUCUAUCCGCCGUGUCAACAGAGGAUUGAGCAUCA: 0.168 ratio
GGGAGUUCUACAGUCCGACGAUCCACUCCCAAGGCGUCUCCUUUAGUUAAAUGGUUUCCCCAAGGUCACCUUUUUGUAAUCGCCAUAGUUUGGGCUACAGGAUGAGACACUAUCUCCACAAACAAGGAAGCCAAUACUCUUAACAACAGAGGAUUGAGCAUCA: 0.538 ratio
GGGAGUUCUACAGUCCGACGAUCGGGCAGACCCGGUGGGCUGACCUGAAGAGUGCCCUAGUCUUCAUUACUUUCACUUAUGGGUUUUCACCAGUGCUGAAGACCCUUACAGAGUCUGUCAGCACUGACACCAUCUAUGCCAUGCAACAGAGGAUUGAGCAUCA: 0.124 ratio
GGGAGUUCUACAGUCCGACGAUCCUGAGCCUGGUGGCUAAGGGUGGGCUCGGCCUCCUCUUCCCCUGUCCGAUGGAGGACAGUCGGAGGCUCUUUUCAAGUUGGUCAGCCCUGACUGAAGUGCUGAAACUGGGAAGGAGAUCCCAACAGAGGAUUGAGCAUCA: 0.04 ratio
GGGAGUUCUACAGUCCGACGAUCAAGAUGCCUUUCCGGUAGCAGGUCAGAAGUUAAUUUAUGCAGGCAAAAUCCUCAGUGAUGAUACUGCUCUCAAAGAAUAUAAAAUUGAUGAGAAAAACUUUGUGGUGGUUAUGGUGACAACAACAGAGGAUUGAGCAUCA: 0.239 ratio
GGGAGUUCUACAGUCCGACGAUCCAAGAUUGGGAAUCCGAAAGAGAGUUAUGUUUGGAAAACCUCCGCCAGGAAUUGUCGUUGAAGCAUCAGUCGGAGAUGGAGGGUUUGCAGAGCCAGUUUCAGAAGGAAUUGUCAGAACAGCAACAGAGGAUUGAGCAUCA: 0.216 ratio

Sample 3 — technique: aptamer microarray, sandwich; molecule type: DNA with 2'F-ANA; medium: in vitro; tested at: 200 nM; with: Cy3 exosite-II aptamer, 400 nM; direction: higher = stronger binding; measurement: mean fluorescence intensity; sequence: GGTTGGTGTGGTTGG
Target: Prothrombin, mature alpha-thrombin (F2, Homo sapiens, UniProt P00734)
Notes: whole 15-mer aptamer, many near background
2'F-ANA at 4 6 8 11 13 14 15: 72.3 a.u.
2'F-ANA at 2 4 7 9 10 12 13 14: 67.7 a.u.
2'F-ANA at 1 3 5 6 7 9 10 12: 48.2 a.u.
2'F-ANA at 1 2 3 5 11 12 13 14 15: 49 a.u.
2'F-ANA at 3 4 8 9 11 12: 837 a.u.
2'F-ANA at 1 2 3 4 5 9 10 12 15: 48 a.u.
2'F-ANA at 1 2 8 10 11: 51.3 a.u.
2'F-ANA at 4 5 6 10 12 13: 54.7 a.u.
2'F-ANA at 6 7 8 9 11 13 14 15: 155 a.u.
2'F-ANA at 4 5 7 9 10 12 14: 44.6 a.u.
2'F-ANA at 4 9 10 11 13: 67 a.u.
2'F-ANA at 3 4 5 7 11 14 15: 56.9 a.u.
2'F-ANA at 2 3 6 10 11 13 15: 281 a.u.
2'F-ANA at 1 8 9 12 13 15: 358 a.u.
2'F-ANA at 2 3 4 5 8 12 14 15: 74.9 a.u.
2'F-ANA at 4 5 6 9 10 12 15: 48.9 a.u.
2'F-ANA at 1 2 4 11 12 13 14: 53.2 a.u.
2'F-ANA at 4 5 6 7 9 10 13: 48.5 a.u.
2'F-ANA at 3 5 8 9 10 11 14: 52.1 a.u.
2'F-ANA at 7 8 10 11 12 13 14: 116 a.u.
2'F-ANA at 1 2 3 4 9 11 12 14: 86.5 a.u.
2'F-ANA at 7 10 11 13 15: 147 a.u.
2'F-ANA at 1 2 3 4 5 8 9 12 13 15: 76.7 a.u.
2'F-ANA at 1 3 8 9 10 11 13 14 15: 62 a.u.
2'F-ANA at 1 9 11 12 15: 318 a.u.

Sample 4 — technique: protein-binding microarray; molecule type: double-stranded DNA, one strand shown; medium: in vitro; tested at: 250 nM; notes: 60-bp whole probe; with: salmon DNA 0.4 mg/ml; relative to: random background probes; direction: higher = stronger binding; measurement: log fluorescence; all sequences stand within: GCCTAGCAC … GTCTTGATTCGCTTGACGCTGCTG
Target: Interferon regulatory factor 5, full length, phosphomimetic (IRF5, Homo sapiens, UniProt Q13568-2, residues 1-514, K96S/S451D/S453D/S456D/S462D)
GCTTCTACACAGAGCATGGGGTGCTAG: -0.266 z-score
GACGGTTCCCTTTTCCTAACGTGCTAG: 0.507 z-score
GACGATCTCTGTATCGAGACGTGCTAG: 1.03 z-score
CACGAACTGAGACTGGAGACGTGCTAG: -0.63 z-score
GACGGTATCGACTTTGGGGACGTGCTA: 1.59 z-score
CCAGTTGAGCACAGGAAAGTGTGCTAG: -0.19 z-score
TTAGGACTGGGGTATCGGTTGGTGCTA: 1.57 z-score
TTAGGTATCGGTCTCGGTGAGTGCTAG: 6.68 z-score
TTACATTTCAGTTTCGATTAGTGCTAG: 10.5 z-score
TTAGGTTTCCTTCTCCTTTGGTGCTAG: 1.22 z-score
GCAGGAGAGACAGAAGTTATGTGCTAG: -0.386 z-score
TTAGGTAACGGGTATCGGTTAGTGCTA: 4.13 z-score
GACGGTATCGGGTGTCGGGACGTGCTA: 2.26 z-score
TCAGCTACCTCTCTTAGACTGTGCTAG: -0.177 z-score
TCATTTCTCAAATGTTTTACTGTGCTA: 1.26 z-score
TTAGGTCGCCTACTGCTTTAGTGCTAG: -0.507 z-score
GACGGTCTCTGTATCGGGACGTGCTAG: 0.52 z-score
AGTAGCTGGGATTACAGGCAGTGCTAG: -0.701 z-score
TTCGATCTCAGACTGGATTAGTGCTAG: 0.411 z-score
TCAGGTATTTTTTTCTAACTGTGCTAG: 0.399 z-score
AGAGAATGTGGAGAAATAGGGTGCTAG: -0.0245 z-score
TCATGTTTCTACTGTCTGACTGTGCTA: 1.57 z-score
TTAGGTTACCTTTTCCTTTAGTGCTAG: 0.742 z-score

Sample 5 — technique: universal PBM; molecule type: double-stranded DNA, one strand shown; medium: in vitro; tested at: not given; direction: higher = stronger binding; measurement: E-score
Target: Sal-like protein 4, full length isoform B (SALL4, Homo sapiens, UniProt Q9UJQ4-2, residues 1-616)
Notes: 8-mer, flanks averaged, mean of replicates
GACTACCA: 0.0596
ATACAAAG: 0.289
GCCCGGGA: -0.393
CGTTTGTA: 0.112
TACAAACA: 0.225
CAGATTCG: -0.0736
CAAAACCC: 0.0207
ACCTGCAC: -0.176
CGGATTAG: -0.0371
GACTGACC: -0.302
TACGATCA: 0.192
AGGTACGA: 0.131
ATCAGATC: 0.0108
AAGGGCGA: -0.171
CTGATCTA: 0.0236
CTTAAAAA: 0.175
AGCTCGAG: -0.235
AGACACGA: 0.0469
AGTAGTTC: 0.0271
AGCAAGCC: -0.181
GGGGAGGA: -0.21
CTATTACA: 0.215
ACCCTTAC: 0.0255
